Results collected from several papers.
A part holds a random share of what one study measured.
UniProt O00506, sequence (whole entry, looked up): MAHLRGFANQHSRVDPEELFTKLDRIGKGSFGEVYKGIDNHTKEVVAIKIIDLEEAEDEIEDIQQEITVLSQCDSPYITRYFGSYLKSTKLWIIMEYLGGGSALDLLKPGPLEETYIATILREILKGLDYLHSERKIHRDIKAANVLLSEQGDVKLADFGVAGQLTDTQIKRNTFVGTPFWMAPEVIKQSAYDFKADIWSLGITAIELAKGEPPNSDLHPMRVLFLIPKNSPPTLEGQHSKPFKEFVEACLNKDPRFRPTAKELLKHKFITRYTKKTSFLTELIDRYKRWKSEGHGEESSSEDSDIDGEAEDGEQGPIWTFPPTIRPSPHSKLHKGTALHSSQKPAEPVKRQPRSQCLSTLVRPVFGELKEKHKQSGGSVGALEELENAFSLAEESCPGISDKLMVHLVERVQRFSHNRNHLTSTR
UniProt O75676, sequence (whole entry, looked up): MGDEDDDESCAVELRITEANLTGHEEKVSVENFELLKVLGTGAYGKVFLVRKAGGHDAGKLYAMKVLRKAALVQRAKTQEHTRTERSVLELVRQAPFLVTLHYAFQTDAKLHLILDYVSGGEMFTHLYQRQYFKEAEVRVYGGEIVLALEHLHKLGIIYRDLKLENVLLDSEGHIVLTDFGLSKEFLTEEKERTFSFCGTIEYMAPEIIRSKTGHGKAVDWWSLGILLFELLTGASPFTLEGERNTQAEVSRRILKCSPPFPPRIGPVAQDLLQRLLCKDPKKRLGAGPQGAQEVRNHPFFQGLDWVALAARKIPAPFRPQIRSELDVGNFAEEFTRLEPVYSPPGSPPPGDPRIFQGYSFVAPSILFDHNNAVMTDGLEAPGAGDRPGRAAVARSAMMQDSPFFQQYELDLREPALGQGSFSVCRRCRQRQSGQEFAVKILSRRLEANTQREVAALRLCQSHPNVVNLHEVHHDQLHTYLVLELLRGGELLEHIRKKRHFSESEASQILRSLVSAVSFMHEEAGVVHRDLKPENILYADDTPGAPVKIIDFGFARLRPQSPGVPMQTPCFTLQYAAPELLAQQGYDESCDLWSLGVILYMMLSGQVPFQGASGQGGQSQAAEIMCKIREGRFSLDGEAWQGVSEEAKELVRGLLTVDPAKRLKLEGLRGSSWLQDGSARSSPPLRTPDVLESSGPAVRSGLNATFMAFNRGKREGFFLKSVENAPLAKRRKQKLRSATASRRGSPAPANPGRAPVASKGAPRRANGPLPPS
UniProt P22607, sequence (whole entry, looked up): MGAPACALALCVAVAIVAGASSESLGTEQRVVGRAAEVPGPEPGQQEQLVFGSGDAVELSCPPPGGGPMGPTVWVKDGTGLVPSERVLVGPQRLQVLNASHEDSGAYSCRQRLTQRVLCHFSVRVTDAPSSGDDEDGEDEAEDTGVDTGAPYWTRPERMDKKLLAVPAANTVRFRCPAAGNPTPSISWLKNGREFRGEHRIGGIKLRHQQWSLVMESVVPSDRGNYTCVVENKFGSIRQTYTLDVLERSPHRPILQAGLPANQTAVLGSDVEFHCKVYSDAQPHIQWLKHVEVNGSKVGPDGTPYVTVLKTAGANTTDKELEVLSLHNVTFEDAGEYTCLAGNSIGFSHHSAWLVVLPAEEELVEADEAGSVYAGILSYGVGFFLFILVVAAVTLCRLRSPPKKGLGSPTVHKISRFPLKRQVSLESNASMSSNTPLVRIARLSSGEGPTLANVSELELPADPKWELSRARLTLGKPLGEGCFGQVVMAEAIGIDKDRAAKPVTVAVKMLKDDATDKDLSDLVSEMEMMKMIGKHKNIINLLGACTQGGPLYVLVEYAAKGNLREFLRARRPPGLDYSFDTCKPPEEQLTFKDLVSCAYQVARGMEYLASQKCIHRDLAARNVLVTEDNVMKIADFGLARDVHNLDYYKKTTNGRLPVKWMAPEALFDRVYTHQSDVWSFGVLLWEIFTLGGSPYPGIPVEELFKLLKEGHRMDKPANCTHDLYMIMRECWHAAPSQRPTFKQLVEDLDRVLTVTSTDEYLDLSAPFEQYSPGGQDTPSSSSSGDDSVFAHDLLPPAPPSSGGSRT
UniProt Q13153, sequence (whole entry, looked up): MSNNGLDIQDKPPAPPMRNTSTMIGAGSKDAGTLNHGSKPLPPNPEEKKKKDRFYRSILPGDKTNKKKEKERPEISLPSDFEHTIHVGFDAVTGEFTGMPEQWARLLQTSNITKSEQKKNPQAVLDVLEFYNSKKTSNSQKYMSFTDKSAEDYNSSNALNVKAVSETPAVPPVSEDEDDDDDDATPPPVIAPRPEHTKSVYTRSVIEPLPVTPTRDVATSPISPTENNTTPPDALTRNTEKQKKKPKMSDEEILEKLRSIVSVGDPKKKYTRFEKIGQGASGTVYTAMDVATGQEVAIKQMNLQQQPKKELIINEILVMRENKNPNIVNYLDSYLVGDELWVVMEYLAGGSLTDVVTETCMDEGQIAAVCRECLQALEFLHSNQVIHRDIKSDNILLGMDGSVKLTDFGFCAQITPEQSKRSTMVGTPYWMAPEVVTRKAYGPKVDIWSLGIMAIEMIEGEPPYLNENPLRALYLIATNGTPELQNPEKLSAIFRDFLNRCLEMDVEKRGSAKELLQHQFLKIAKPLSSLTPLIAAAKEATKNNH
UniProt P21709, sequence (whole entry, looked up): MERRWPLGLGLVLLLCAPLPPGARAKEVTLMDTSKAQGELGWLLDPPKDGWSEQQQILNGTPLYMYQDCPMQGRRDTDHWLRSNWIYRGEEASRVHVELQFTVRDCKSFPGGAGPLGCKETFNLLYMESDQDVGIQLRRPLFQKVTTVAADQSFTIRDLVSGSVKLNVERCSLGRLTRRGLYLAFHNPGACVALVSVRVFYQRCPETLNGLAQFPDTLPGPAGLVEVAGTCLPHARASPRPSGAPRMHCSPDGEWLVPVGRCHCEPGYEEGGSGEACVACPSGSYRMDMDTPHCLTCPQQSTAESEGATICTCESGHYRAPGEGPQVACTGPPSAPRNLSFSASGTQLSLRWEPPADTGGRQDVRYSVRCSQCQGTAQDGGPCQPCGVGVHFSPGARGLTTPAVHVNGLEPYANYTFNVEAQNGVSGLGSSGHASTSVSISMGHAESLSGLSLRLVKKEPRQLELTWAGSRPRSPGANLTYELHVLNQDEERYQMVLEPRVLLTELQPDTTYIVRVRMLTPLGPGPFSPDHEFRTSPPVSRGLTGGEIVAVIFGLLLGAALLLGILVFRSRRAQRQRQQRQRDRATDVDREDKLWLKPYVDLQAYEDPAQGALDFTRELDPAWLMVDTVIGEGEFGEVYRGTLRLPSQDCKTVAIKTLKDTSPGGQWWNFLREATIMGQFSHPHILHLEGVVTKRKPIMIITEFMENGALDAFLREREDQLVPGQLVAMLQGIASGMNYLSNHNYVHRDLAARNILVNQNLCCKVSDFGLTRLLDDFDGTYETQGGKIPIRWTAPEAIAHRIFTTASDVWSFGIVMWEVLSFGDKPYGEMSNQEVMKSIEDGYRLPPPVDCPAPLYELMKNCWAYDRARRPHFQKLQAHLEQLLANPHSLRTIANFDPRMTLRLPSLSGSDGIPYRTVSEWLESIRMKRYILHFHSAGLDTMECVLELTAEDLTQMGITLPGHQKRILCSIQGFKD

Sample 1
SMILES: O=C(O)[C@H]1[C@H](Cn2nnc3ccccc3c2=O)CC[C@@H]1C(=O)c1ccc(OCCC2CCOCC2)cc1
Effect on: cell-free assay
Technique: competition with immobilised ligand
Tested at: 1 µM
| target | remaining binding [%] |
| --- | --- |
| FGFR3 (Homo sapiens, UniProt P22607) | 100 |
| PAK1 (Homo sapiens, UniProt Q13153) | 83 |
| STK25 (Homo sapiens, UniProt O00506) | 90 |
| Ribosomal protein S6 kinase alpha-4, C-terminal kinase domain (RPS6KA4, Homo sapiens, UniProt O75676) | 97 |
| EPHA1 (Homo sapiens, UniProt P21709) | 100 |

Sample 2
Target: RAC-beta serine/threonine-protein kinase (AKT2, Homo sapiens, UniProt P31751)
UniProt P31751, sequence (whole entry, looked up): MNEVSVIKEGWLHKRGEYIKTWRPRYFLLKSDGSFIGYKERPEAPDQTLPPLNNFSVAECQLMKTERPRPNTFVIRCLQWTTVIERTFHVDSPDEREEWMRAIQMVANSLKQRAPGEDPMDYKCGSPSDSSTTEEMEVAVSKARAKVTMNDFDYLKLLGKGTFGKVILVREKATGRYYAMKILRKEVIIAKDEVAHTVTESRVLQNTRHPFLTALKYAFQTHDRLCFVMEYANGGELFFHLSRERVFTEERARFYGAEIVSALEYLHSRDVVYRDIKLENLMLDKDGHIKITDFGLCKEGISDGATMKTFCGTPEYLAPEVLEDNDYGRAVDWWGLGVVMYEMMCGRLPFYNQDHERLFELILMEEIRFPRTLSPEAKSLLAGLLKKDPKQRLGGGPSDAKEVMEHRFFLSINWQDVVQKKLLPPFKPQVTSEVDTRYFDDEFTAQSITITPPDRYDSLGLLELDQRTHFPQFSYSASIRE
Effect on: enzyme activity
Mode: inhibitor
Tested at: 0.5 µM
Reference: control
| Compound | remaining activity |
| --- | --- |
| COc1cc2nccc(Oc3ccc(NC(=S)NC(=O)c4ccccc4C)cc3)c2cc1OC | 102% |
| O=C(O)c1ccc2c3c1cccc3c(=O)n1c3ccccc3nc21 | 101% |
| O=C(Nc1cccc(Nc2cc(Nc3cccc(C(F)(F)F)c3)ncn2)c1)C1CC1 | 103% |
| COc1ccc(CNC(=O)Nc2ncc([N+](=O)[O-])s2)cc1 | 103% |
| COc1cc2ncnc(Nc3ccc(Oc4ccccc4)cc3)c2cc1OC | 99.4% |
| O=C1NC(=O)C(c2cn(CCCn3ccnc3)c3ccccc23)=C1Nc1ccccc1 | 92.3% |
| Cc1ccc(NC(=O)c2ccc(CN3CCN(C)CC3)cc2)cc1Nc1nc(-c2cccnc2)cs1 | 103% |
| Oc1ccc(-c2nc(-c3ccncc3)c(-c3ccc(F)cc3)[nH]2)cc1 | 99% |
| CC(C)[C@H](CO)Nc1nc(Nc2cc(N)cc(Cl)c2)c2ncn(C(C)C)c2n1 | 100% |
| CN(C)c1ccc(C=C2C(=O)Nc3ccccc32)cc1 | 98.1% |
| COc1ccc(C(=O)Nc2sc3c(c2C(N)=O)CCCC3)cc1OC | 97% |
| COc1ccc(OC)c2c(=S)c3ccccc3[nH]c12 | 94.6% |
| Cc1nc(-c2ccccc2)c(-c2ccncc2)o1 | 96.7% |

Sample 3
Species: human
Medium: microsomes or S9
Tested at: 2 µM
Time: 0.5 h
| SMILES | remaining compound [%] |
| --- | --- |
| CN(C)S(=O)(=O)c1cc2c(cc1NC1CCCC1)Oc1ccccc1NC2=O | > 99 |
| CC(Nc1ccn(CCS(C)(=O)=O)n1)c1nc(C(C)(C)C)no1 (stereo not drawn) | 76.1 |
| Cc1nc2n(n1)CC(Nc1ccc3nccnc3n1)CC2 (stereo not drawn) | 91.6 |
| Cc1cc(C)c(S(=O)(=O)NC(CCC(=O)O)C(=O)O)cc1N(C)S(C)(=O)=O (stereo not drawn) | 82.5 |
| Nc1nc(F)c2ncn(C3CC(O)C(CO)O3)c2n1 (stereo not drawn) | 6.55 |

Sample 4
Cell line: HuT78
Tested at: 2 µM
Time: 48 h
Reference: untreated
| Structure (SMILES) | viability [%] |
| --- | --- |
| O=C(NOCC(O)CO)c1cc(Br)c(F)c(F)c1Nc1ccc(I)cc1F (stereo not drawn) | 98.1 |
| C=CC(=O)Nc1cccc(Nc2nc(Nc3ccc(NC4CN(CCF)C4)cc3OC)ncc2C(F)(F)F)c1 | 84.8 |
| Cn1c(Nc2ccc(C(F)(F)F)cc2)nc2cc(Oc3ccnc(-c4ncc(C(F)(F)F)[nH]4)c3)ccc21 | 117 |
| Cc1[nH]c2ccccc2c1C1=C(NCCc2ccc(F)cc2)C(=O)N(C)C1=O | 139 |

Excerpt of the above (sample 2):
| Compound | remaining activity |
| --- | --- |
| O=C1NC(=O)C(c2cn(CCCn3ccnc3)c3ccccc23)=C1Nc1ccccc1 | 92.3% |
| COc1ccc(CNC(=O)Nc2ncc([N+](=O)[O-])s2)cc1 | 103% |
| CN(C)c1ccc(C=C2C(=O)Nc3ccccc32)cc1 | 98.1% |
| Cc1nc(-c2ccccc2)c(-c2ccncc2)o1 | 96.7% |
